Measurements collected from several papers.
Lines come from different studies, so protocols differ.

`COc1cc(-c2cncc3c2CN(C)Cc2cc(N4CCNCC4)ccc2-3)cc(OC)c1OC` gave a remaining activity of 110% (RPS6KA1 (Homo sapiens, UniProt Q15418); enzyme activity, inhibitor; 1 µM).
`C[C@@H](O)[C@H](NC(=O)[C@H](Cc1ccc(O)cc1)NC(=O)[C@H](Cc1ccc(O)cc1)NC(=O)[C@H](CO)NC(=O)[C@H](CCCNC(=N)N)NC(=O)[C@H](Cc1c[nH]cn1)NC(=O)[C@@H](N)Cc1c[nH]c2ccccc12)C(=O)N[C@@H](Cc1c[nH]c2ccccc12)C(=O)N[C@@H](CC(N)=O)C(N)=O` has a compound remaining of 10.8% (chemical stability; human, serum; 20 µM, 1 h).
With `NS(=O)(=O)c1nnc(NC(=O)CCC2CCC(F)(F)CC2)s1` the compound remaining was 91% (metabolic stability; mouse, liver microsomes; 1 h).
`O=C(c1ccc(F)cc1)C1CCN(CCn2c(=O)[nH]c3ccccc3c2=O)CC1` gave a compound remaining of 28.5% (metabolic stability, mass spectrometry; mouse, liver microsomes; 45 min).
The compound remaining of `Cc1ncsc1-c1ccc(CNC(=O)[C@@H]2C[C@@H](O)CN2C(=O)[C@@H](NC(=O)CCCCCCCCCCNC(=O)O[C@H]2C[C@@H](C)C=C3C=C[C@H](C)[C@H](CC[C@@H]4C[C@@H](O)CC(=O)O4)[C@H]32)C(C)(C)C)cc1` is reported as 4.34% (metabolic stability; mouse, liver microsomes; 1 µM, 30 min, pH 7.4).
`CCCCC(=O)Nc1ccc(-c2ccc3ncn(CCC)c(=O)c3c2)cn1` gave a remaining binding of 86% (Tyrosine-protein kinase ABL1, phosphorylated (ABL1, Homo sapiens, UniProt P00519, T315I); binding, competition with immobilised ligand; 0.5 µM).
For `CNc1ncc2c(/C=C/C(=O)N3CCC(OC)CC3)nn(Cc3cccc(C(F)(F)F)c3)c2n1`, the remaining activity was 89% (PKN1 (Homo sapiens, UniProt Q16512); enzyme activity, inhibitor, radiometric; 1 µM).
With `O=C(N1CCCCC1)C12CC(c3ccccc3)(C1)C2` the compound remaining was 83% (metabolic stability; human, liver microsomes; 2 µM, 25 min, pH 7.4).
`CC(C)[N+](C)(CCOC(=O)C1c2ccccc2Oc2ccccc21)C(C)C` gave a compound remaining of 20.2% (metabolic stability; human, plasma; 1 h).
The remaining binding of `Cc1cc([C@@H](C)Nc2ccccc2C(=O)O)c2nc(N3CCC(F)(F)CC3)c(C#N)c(=O)n2c1` is reported as 100% (FGFR3 (Homo sapiens, UniProt P22607); binding, competition with immobilised ligand; 10 µM).
With `O=C(O)Cc1ccccc1Nc1c(Cl)cccc1Cl` the compound remaining was 71% (metabolic stability; human, liver microsomes; 2 µM, 7 min, pH 7.4).
With `O=C(Nc1ccc(CN2CCOCC2)c(C(F)(F)F)c1)c1ccc(C#Cc2cccc3cnccc23)cn1` the compound remaining was 21.8% (metabolic stability; mouse, liver microsomes; 30 min).
`C[C@@H](O)[C@H](NC(=O)[C@H](Cc1ccc(O)cc1)NC(=O)[C@H](Cc1ccc(O)cc1)NC(=O)[C@H](CO)NC(=O)[C@H](CCCNC(=N)N)NC(=O)[C@H](Cc1c[nH]cn1)NC(=O)[C@@H](N)Cc1c[nH]c2ccccc12)C(=O)N[C@@H](Cc1c[nH]c2ccccc12)C(=O)N[C@@H](CC(N)=O)C(=O)NCCCC[C@H](NC(=O)[C@H](CC(N)=O)NC(=O)[C@H](Cc1c[nH]c2ccccc12)NC(=O)[C@@H](NC(=O)[C@H](Cc1ccc(O)cc1)NC(=O)[C@H](Cc1ccc(O)cc1)NC(=O)[C@H](CO)NC(=O)[C@H](CCCNC(=N)N)NC(=O)[C@H](Cc1c[nH]cn1)NC(=O)[C@@H](N)Cc1c[nH]c2ccccc12)[C@@H](C)O)C(=O)NCCCC[C@H](NC(=O)[C@H](CCCCNC(=O)[C@H](CC(N)=O)NC(=O)[C@H](Cc1c[nH]c2ccccc12)NC(=O)[C@@H](NC(=O)[C@H](Cc1ccc(O)cc1)NC(=O)[C@H](Cc1ccc(O)cc1)NC(=O)[C@H](CO)NC(=O)[C@H](CCCNC(=N)N)NC(=O)[C@H](Cc1c[nH]cn1)NC(=O)[C@@H](N)Cc1c[nH]c2ccccc12)[C@@H](C)O)NC(=O)[C@H](CC(N)=O)NC(=O)[C@H](Cc1c[nH]c2ccccc12)NC(=O)[C@@H](NC(=O)[C@H](Cc1ccc(O)cc1)NC(=O)[C@H](Cc1ccc(O)cc1)NC(=O)[C@H](CO)NC(=O)[C@H](CCCNC(=N)N)NC(=O)[C@H](Cc1c[nH]cn1)NC(=O)[C@@H](N)Cc1c[nH]c2ccccc12)[C@@H](C)O)C(=O)N[C@@H](CCCCN)C(=O)N[C@@H](CCCCN)C(=O)N[C@@H](CCCCN)C(N)=O` has a compound remaining of 28% (chemical stability; human, serum; 20 µM, 4 h).
The compound remaining of `N#C[C@@]12C[C@@H]1[C@@H](n1cnc3c(N[C@@H](C4CCC4)C4CC4)nc(I)nc31)[C@H](O)[C@@H]2O` is reported as 68.1% (metabolic stability; human, liver microsomes; 1 h).
`C[C@@H](O)[C@H](NC(=O)[C@H](Cc1ccc(O)cc1)NC(=O)[C@H](Cc1ccc(O)cc1)NC(=O)[C@H](CO)NC(=O)[C@H](CCCNC(=N)N)NC(=O)[C@H](Cc1c[nH]cn1)NC(=O)[C@@H](N)Cc1c[nH]c2ccccc12)C(=O)N[C@@H](Cc1c[nH]c2ccccc12)C(=O)N[C@@H](CC(N)=O)C(=O)NCCCC[C@H](NC(=O)[C@H](CCCCNC(=O)[C@H](CC(N)=O)NC(=O)[C@H](Cc1c[nH]c2ccccc12)NC(=O)[C@@H](NC(=O)[C@H](Cc1ccc(O)cc1)NC(=O)[C@H](Cc1ccc(O)cc1)NC(=O)[C@H](CO)NC(=O)[C@H](CCCNC(=N)N)NC(=O)[C@H](Cc1c[nH]cn1)NC(=O)[C@@H](N)Cc1c[nH]c2ccccc12)[C@@H](C)O)NC(=O)[C@H](CC(N)=O)NC(=O)[C@H](Cc1c[nH]c2ccccc12)NC(=O)[C@@H](NC(=O)[C@H](Cc1ccc(O)cc1)NC(=O)[C@H](Cc1ccc(O)cc1)NC(=O)[C@H](CO)NC(=O)[C@H](CCCNC(=N)N)NC(=O)[C@H](Cc1c[nH]cn1)NC(=O)[C@@H](N)Cc1c[nH]c2ccccc12)[C@@H](C)O)C(=O)N[C@@H](CCCCN)C(=O)N[C@@H](CCCCN)C(N)=O` gave a compound remaining of 25% (chemical stability; human, serum; 20 µM, 1 h).
With `C=CC(=O)N1CCC(COCC(=O)N2CCN(c3nc(-c4cnc(N)nc4C(F)F)nc(N4CCOC[C@@H]4C)n3)CC2)CC1` the remaining binding was 92% (MAP3K9 (Homo sapiens, UniProt P80192); binding, competition with immobilised ligand; 1 µM).
The compound remaining of `CC(C)NCC(O)COc1cccc2ccccc12` (racemic) is reported as 65% (metabolic stability; human, liver microsomes; 2 µM, 40 min, pH 7.4).
`Cc1ccc(N(O)N=Nc2ccc(S(=O)(=O)Nc3onc(C)c3C)cc2)cc1` has an inhibition of 70.1% (ABTS scavenging; 120 µg/mL).
